Results of several laboratories.
Parts stem from different laboratories: compare values within a part only.
Sequence of UniProt Q9BWU1 (whole entry, looked up): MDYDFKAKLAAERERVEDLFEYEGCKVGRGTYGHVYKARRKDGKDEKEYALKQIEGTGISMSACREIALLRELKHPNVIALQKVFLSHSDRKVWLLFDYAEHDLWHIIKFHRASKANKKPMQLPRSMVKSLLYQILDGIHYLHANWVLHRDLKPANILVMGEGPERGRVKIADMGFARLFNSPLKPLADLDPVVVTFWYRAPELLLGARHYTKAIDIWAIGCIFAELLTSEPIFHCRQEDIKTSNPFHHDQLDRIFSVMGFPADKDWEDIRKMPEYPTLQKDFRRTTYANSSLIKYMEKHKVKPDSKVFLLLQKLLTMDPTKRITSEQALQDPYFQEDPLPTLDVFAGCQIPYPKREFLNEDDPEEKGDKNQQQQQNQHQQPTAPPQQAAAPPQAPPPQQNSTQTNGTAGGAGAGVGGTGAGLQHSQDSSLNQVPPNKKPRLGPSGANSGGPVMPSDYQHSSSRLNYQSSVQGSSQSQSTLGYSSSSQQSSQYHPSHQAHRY
Sequence of UniProt Q15831 (whole entry, looked up): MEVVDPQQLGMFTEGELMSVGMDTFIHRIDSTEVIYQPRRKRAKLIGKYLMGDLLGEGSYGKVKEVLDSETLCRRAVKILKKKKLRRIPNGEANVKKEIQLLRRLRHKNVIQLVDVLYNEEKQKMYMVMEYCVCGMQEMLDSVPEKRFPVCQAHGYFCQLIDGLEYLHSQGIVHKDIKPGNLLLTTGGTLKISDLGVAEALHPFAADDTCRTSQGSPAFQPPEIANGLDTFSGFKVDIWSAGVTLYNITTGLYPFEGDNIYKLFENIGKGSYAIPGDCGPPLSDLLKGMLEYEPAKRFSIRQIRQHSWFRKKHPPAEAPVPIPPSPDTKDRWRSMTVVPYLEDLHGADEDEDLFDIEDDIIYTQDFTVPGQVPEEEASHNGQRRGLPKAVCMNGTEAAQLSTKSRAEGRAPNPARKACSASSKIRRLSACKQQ
Sequence of UniProt P42336 (whole entry, unmodified, looked up): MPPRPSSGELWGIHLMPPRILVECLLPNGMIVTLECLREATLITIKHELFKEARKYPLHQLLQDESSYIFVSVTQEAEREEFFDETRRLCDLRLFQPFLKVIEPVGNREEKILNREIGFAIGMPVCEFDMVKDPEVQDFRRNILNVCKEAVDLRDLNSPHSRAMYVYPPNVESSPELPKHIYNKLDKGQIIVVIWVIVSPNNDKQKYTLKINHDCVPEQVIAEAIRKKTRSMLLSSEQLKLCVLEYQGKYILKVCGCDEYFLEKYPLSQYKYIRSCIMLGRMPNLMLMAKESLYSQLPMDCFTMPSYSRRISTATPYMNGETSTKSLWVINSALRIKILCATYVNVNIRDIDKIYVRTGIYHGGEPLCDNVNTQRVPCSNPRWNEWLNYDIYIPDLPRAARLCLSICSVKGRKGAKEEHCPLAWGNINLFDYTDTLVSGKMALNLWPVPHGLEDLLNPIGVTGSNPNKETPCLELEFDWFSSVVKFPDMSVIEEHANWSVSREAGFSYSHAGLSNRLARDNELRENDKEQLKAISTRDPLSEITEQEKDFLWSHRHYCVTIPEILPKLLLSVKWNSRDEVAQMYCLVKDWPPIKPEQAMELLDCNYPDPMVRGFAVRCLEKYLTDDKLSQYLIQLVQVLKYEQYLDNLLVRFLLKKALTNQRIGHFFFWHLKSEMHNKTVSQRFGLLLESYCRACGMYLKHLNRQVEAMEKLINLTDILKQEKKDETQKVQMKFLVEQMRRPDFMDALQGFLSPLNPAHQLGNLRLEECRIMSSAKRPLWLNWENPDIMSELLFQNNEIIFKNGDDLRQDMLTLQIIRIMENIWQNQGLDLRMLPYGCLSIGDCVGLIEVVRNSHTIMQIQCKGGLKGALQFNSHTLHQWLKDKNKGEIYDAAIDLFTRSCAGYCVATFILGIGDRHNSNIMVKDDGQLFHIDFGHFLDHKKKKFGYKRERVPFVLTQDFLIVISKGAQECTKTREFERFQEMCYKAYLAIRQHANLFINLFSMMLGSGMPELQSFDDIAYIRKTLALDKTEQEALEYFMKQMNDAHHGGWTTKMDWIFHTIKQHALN
Sequence of UniProt P33981 (whole entry, looked up): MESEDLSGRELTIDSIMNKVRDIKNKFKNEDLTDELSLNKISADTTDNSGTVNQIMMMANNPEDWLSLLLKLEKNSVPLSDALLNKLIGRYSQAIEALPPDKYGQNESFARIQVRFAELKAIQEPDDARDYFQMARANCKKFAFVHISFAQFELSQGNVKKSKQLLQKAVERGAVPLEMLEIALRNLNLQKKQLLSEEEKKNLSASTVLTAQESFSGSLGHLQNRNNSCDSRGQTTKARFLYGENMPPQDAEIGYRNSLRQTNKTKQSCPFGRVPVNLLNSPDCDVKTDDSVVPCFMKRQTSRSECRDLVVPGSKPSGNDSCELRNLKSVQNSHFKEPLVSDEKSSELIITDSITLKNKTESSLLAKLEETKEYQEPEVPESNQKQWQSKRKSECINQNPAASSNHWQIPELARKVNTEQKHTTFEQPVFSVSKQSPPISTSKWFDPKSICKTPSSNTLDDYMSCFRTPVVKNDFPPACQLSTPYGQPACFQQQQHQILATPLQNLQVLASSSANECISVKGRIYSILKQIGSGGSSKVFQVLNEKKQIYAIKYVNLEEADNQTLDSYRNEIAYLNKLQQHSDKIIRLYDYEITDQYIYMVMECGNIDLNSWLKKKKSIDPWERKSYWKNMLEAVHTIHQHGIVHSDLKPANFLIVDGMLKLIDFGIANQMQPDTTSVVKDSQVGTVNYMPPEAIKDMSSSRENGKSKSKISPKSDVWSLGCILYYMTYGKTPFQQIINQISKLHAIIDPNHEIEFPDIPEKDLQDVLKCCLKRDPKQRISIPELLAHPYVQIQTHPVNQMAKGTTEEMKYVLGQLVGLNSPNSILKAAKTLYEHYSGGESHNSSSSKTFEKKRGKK
Sequence of UniProt O00238 (whole entry, looked up): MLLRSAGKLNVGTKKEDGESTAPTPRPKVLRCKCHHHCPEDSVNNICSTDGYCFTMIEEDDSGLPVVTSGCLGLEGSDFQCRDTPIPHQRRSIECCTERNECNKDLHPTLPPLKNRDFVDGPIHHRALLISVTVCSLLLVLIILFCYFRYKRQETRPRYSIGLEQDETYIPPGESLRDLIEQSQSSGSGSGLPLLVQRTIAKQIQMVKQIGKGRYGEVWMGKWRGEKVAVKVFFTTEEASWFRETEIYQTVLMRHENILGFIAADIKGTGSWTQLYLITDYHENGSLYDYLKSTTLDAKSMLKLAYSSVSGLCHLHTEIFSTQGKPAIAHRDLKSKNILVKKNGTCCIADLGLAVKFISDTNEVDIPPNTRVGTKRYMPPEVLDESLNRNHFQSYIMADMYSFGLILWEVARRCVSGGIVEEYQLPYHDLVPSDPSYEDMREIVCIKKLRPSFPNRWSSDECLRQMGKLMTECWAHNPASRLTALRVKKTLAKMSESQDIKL
Sequence of UniProt O95382 (whole entry, looked up): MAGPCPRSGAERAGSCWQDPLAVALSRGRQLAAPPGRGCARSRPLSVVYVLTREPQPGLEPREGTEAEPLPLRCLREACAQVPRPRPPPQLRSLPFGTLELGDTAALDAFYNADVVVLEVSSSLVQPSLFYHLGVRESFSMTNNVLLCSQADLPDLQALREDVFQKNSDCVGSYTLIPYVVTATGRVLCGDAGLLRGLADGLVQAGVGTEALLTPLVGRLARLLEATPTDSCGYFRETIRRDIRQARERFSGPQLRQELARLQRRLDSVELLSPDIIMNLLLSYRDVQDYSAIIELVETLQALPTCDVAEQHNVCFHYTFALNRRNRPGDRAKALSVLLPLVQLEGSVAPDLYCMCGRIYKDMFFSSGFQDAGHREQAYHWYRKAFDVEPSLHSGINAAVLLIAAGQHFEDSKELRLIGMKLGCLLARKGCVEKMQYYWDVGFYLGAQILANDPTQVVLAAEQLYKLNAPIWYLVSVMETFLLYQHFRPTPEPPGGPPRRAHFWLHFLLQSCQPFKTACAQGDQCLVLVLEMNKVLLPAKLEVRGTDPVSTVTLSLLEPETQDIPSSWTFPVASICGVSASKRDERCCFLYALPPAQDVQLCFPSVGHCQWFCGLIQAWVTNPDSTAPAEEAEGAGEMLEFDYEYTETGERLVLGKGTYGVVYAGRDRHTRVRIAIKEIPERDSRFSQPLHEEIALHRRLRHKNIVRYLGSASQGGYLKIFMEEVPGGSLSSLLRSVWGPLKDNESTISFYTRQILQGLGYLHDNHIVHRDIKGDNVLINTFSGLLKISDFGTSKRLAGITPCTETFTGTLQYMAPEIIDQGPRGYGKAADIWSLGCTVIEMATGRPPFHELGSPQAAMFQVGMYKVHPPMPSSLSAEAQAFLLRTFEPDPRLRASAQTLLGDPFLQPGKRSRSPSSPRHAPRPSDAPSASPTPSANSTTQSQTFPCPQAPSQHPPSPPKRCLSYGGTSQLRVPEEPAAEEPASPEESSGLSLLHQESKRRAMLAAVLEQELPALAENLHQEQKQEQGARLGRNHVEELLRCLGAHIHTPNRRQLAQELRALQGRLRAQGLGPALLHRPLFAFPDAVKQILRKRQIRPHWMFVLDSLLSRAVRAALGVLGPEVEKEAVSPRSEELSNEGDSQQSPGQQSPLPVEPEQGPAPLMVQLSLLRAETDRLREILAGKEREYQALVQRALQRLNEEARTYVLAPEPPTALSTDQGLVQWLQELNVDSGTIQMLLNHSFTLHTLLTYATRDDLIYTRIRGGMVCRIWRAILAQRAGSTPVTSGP

Sample 1 — observed: AlphaScreen signal; method: AlphaScreen counter screen; medium: His6 peptide without bromodomain; concentration: 50 µM; notes: assay interference check
With `N#CC(=Cc1ccc(O)c(O)c1)C(=O)NCc1ccccc1` the inhibition was 32.5%.
With `O=C(Nc1cc(Cl)ccc1C(=O)O)c1ccc2c(c1)C(=O)N(Cc1cccnc1)C2=O` the inhibition was 7.3%.
`O=C1Nc2ccccc2C1=Nc1sc2c(c1C(=O)Nc1ccccc1)CCCC2` has an inhibition of 20.6%.
For `O=C1NC(=S)SC1=Cc1ccc(-c2ccccc2Cl)o1`, the inhibition was 12.6%.
The inhibition of `Cc1ccc(NC(=O)c2cccc(N(C)C)c2)cc1NC(=O)c1ccc(O)cc1` is reported as 37.6%.
The inhibition of `Cc1cnc(Nc2ccc(F)cc2Cl)nc1-c1c[nH]c(C(=O)N[C@H](CO)c2cccc(Cl)c2)c1` is reported as 66.1%.
The inhibition of `CN(C)CC1CCn2c(c(C3=C(c4cn(C)c5ccccc45)C(=O)NC3=O)c3ccccc32)C1.Cl` (stereo not shown) is reported as 86.3%.
`CCCN(CCC)CCCNc1ccc2nnc(-c3ccc(F)cc3)n2n1` gave an inhibition of 11.2%.

Sample 2 — cell line: HaCaT; concentration: 100 µM; time: 18 h
With `CC(=O)Oc1cc(C)c(OC(C)=O)c2ccccc12` the viability was 27.9%.
The viability of `COC(=O)c1ccccc1O` is reported as 97%.
For `CNC1CCCN(c2c(F)cc3c(=O)c(C(=O)O)cn(C4CC4)c3c2OC)C1` (stereo not shown), the viability was 97.7%.
For `c1ccc(Cc2nc3ccccc3[nH]2)cc1`, the viability was 98.1%.
`Cc1cc2nc3c(=O)[nH]c(=O)nc-3n(C[C@H](O)[C@H](O)[C@H](O)CO)c2cc1C` has a viability of 98.2%.
`CCN(CC)CCOc1ccc2c(c1)C(=O)c1cc(OCCN(CC)CC)ccc1-2` has a viability of 35.4%.
The viability of `C[C@@H](c1ncncc1F)[C@](O)(Cn1cncn1)c1ccc(F)cc1F` is reported as 114%.
For `CCN(CC)CCNC(=O)c1cc(S(C)(=O)=O)ccc1OC`, the viability was 99.2%.
For `O=C(O)Cc1cc(I)c(Oc2ccc(O)c(I)c2)c(I)c1`, the viability was 63.5%.

Sample 3 — observed: enzyme activity; mode: inhibitor; concentration: 0.5 µM; reference: control
Target: Mitogen-activated protein kinase 8 (MAPK8, Homo sapiens, UniProt P45983)
Sequence of UniProt P45983 (whole entry, looked up): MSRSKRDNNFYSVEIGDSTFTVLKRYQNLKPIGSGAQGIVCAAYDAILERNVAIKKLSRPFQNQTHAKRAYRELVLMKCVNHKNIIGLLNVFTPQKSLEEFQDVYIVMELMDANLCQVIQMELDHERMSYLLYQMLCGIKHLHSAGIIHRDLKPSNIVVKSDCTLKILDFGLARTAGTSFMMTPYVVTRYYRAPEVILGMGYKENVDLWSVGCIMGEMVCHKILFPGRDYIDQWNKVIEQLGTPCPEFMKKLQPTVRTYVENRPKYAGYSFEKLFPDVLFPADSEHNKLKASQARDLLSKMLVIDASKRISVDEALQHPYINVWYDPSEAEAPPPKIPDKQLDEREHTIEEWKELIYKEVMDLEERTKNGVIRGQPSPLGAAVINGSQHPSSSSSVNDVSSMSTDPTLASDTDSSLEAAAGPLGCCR
The remaining activity of `C[C@@H](N)[C@H]1CC[C@H](C(=O)Nc2ccncc2)CC1` is reported as 97.1%.
The remaining activity of `CC(C)(C)c1nc2c3cc[nH]c(=O)c3c3cc(F)ccc3c2[nH]1` is reported as 73.7%.
`CC(C)n1cnc2c(Nc3cccc(Cl)c3)nc(NCCO)nc21` has a remaining activity of 94.8%.
`Nc1nc(Nc2ccc(S(N)(=O)=O)cc2)nn1C(=S)Nc1c(F)cccc1F` gave a remaining activity of 78.8%.
`NC(=O)c1ccc(-c2nc(-c3ccc4c(c3)OCCO4)c(-c3ccccn3)[nH]2)cc1` has a remaining activity of 97.4%.
`CNc1cc2c(Nc3cccc(Br)c3)ncnc2cn1` has a remaining activity of 96.4%.
The remaining activity of `O=C1NC(=O)/C(=C/c2ccc3c(c2)OC(F)(F)O3)S1` is reported as 95.1%.
The remaining activity of `O=c1c(-c2ccc(F)cc2)c(-c2ccncc2)[nH]n1-c1ccc(Cl)cc1` is reported as 90.2%.
`Clc1ccc(Nc2nnc(Cc3ccncc3)c3ccccc23)cc1` has a remaining activity of 98.2%.
`FC(F)(F)c1ccc(/C=C/c2nc(COc3ccc(CCCCn4ccnn4)cc3)co2)cc1` has a remaining activity of 105%.
`O=C(c1ccccc1)c1ccc(N2CCOCC2)cc1O` gave a remaining activity of 99.5%.

Sample 4 — concentration: 1 µM
SMILES: Cc1c(NC(=O)c2cc(C(N)=O)nc3cc(F)ccc23)c(C(F)(F)F)nn1Cc1ccc(C#N)cc1
Mitogen-activated protein kinase kinase kinase 6 (MAP3K6, Homo sapiens, UniProt O95382); cell-free assay, competition with immobilised ligand — remaining binding: 75%.
For Dual specificity mitogen-activated protein kinase kinase 1 (MAP2K1, Homo sapiens, UniProt Q02750); cell-free assay, competition with immobilised ligand: remaining binding read 90%.
For Epidermal growth factor receptor (EGFR, Homo sapiens, UniProt P00533, T790M); cell-free assay, competition with immobilised ligand: remaining binding read 100%.
For Serine/threonine-protein kinase STK11 (STK11, Homo sapiens, UniProt Q15831); cell-free assay, competition with immobilised ligand: remaining binding read 100%.
Phosphatidylinositol 4,5-bisphosphate 3-kinase catalytic subunit alpha isoform (PIK3CA, Homo sapiens, UniProt P42336, E542K); cell-free assay, competition with immobilised ligand — remaining binding: 84%.
For Serine/threonine-protein kinase 36 (STK36, Homo sapiens, UniProt Q9NRP7); cell-free assay, competition with immobilised ligand: remaining binding read 100%.
It gave 95% for remaining binding (LIM domain kinase 2 (LIMK2, Homo sapiens, UniProt P53671); cell-free assay, competition with immobilised ligand).
It gave 80% for remaining binding (Receptor-type tyrosine-protein kinase FLT3 (FLT3, Homo sapiens, UniProt P36888, D835V/ITD); cell-free assay, competition with immobilised ligand).
For Cyclin-dependent kinase 19 (CDK19, Homo sapiens, UniProt Q9BWU1); competition binding: remaining binding read 82%.
It gave 100% for remaining binding (Tyrosine-protein kinase receptor UFO (AXL, Homo sapiens, UniProt P30530); binding, competition with immobilised ligand).
The remaining binding was 88% (Glycogen synthase kinase-3 beta (GSK3B, Homo sapiens, UniProt P49841); cell-free assay, competition with immobilised ligand).
The remaining binding was 95% (Dual specificity protein kinase TTK (TTK, Homo sapiens, UniProt P33981); cell-free assay, competition with immobilised ligand).
Tyrosine-protein kinase ABL1, non-phosphorylated (ABL1, Homo sapiens, UniProt P00519, F317L); cell-free assay, competition with immobilised ligand — remaining binding: 88%.
For Non-receptor tyrosine-protein kinase TYK2, JH1 (TYK2, Homo sapiens, UniProt P29597); cell-free assay, competition with immobilised ligand: remaining binding read 83%.
The remaining binding was 77% (Bone morphogenetic protein receptor type-1B (BMPR1B, Homo sapiens, UniProt O00238); cell-free assay, competition with immobilised ligand).

Repeated from above (sample 4):
For Cyclin-dependent kinase 19 (CDK19, Homo sapiens, UniProt Q9BWU1); competition binding: remaining binding read 82%.
It gave 100% for remaining binding (Tyrosine-protein kinase receptor UFO (AXL, Homo sapiens, UniProt P30530); binding, competition with immobilised ligand).
The remaining binding was 88% (Glycogen synthase kinase-3 beta (GSK3B, Homo sapiens, UniProt P49841); cell-free assay, competition with immobilised ligand).
